Assay results pooled from the literature.
± gives the spread as reported.

Compound	organism	test	test system	conditions	EC50
COC(=O)c1cccc(-n2nc(C)c3c(C)n(-c4ccc(OC)cc4)nc3c2=O)c1	Zika virus	viral replication, immunofluorescence	Vero, MR766	24 h	161 ± 9.1 µM
CC1(CCCCCCCCCCCCCCOCCCOP(=O)(O)CO[C@H](CO)Cn2ccc(N)nc2=O)COC1	JC polyomavirus	qPCR	COS-7, MAD-4	7 days	> 25.5 µM
C=C(C)[C@@H]1CC[C@]2(C(N)=O)CC[C@]3(C)[C@H](CC[C@@H]4[C@@]5(C)CCCNC(C)(C)[C@@H]5CC[C@]43C)[C@@H]12	Human cytomegalovirus	cytopathic effect	HFF, AD169		> 1.2 µM
Nc1ncnc2c1c(-c1ccc(F)c(F)c1)cn2[C@@H]1O[C@H](CO)[C@@H](O)[C@H]1O	Trichomonas vaginalis	resorufin	G3, metronidazole-sensitive	24 h + 2 h, 2% O2	0.25 ± 0.025 µM
C[C@H]1[C@H](C)CC[C@]2(CO)CC[C@]3(C)C(=CC[C@@H]4[C@@]5(C)CCCNC(C)(C)[C@@H]5CC[C@]43C)[C@H]12	Human cytomegalovirus	cytopathic effect	HFF, AD169		0.11 µM
O=C(Nc1cc2nc(-c3cccc(C(F)(F)F)c3)cn2cn1)N1CC[C@H](F)C1	Trypanosoma cruzi		3T3 host cells, Tulahuen beta-galactosidase	6 days	0.08 µM
CC1(CCCCCCCCCCCCOCCCOP(=O)(O)CO[C@H](CO)Cn2ccc(N)nc2=O)COC1	JC polyomavirus	qPCR	COS-7, MAD-4	7 days	4.2 ± 4.6 µM
Fc1ccc(-c2cn3cccnc3n2)cc1F	Trypanosoma cruzi		3T3 host cells, Tulahuen beta-galactosidase	6 days	> 20 µM
CC1COCCN1c1nc(NCc2cccnc2C(F)(F)F)c2cccnc2n1 (stereo not drawn)	Wolbachia pipientis	infected cells, high-content imaging	C6/36 cells, wAlbB		0.0026 ± 0.0005 µM
CCOC(=O)[C@@H](C)NP(=O)(CO[C@H](CF)CN1CNC(N)=NC1=O)N[C@H](C)C(=O)OCC	human cytomegalovirus	cytopathic effect	HEL, AD-169		> 100 µM
Nc1ncnc2c1c(-c1ccccc1Cl)cn2[C@@H]1O[C@H](CO)[C@@H](O)[C@H]1O	Trichomonas vaginalis	resorufin	G3, metronidazole-sensitive	24 h + 2 h, 2% O2	9.6 ± 0.3 µM
C[N+](C)(CC(=O)Nc1cccc(C(F)(F)F)c1)CC(=O)Nc1cccc(C(F)(F)F)c1	Zika virus	viral replication, inhibitor, luciferase	Huh-7		0.022 µM
COc1ccc(-n2nc3c(=O)n(Cc4cccc(N)c4)nc(C)c3c2C)cc1	Zika virus	viral replication, immunofluorescence	Vero, MR766	24 h	144 ± 3.9 µM
COc1ccc(S(=O)(=O)NCc2c[nH]nc2-c2cccs2)cc1	Plasmodium falciparum	parasite growth, SYBR Green	3D7	72 h, blood stage	0.49 µM
Nc1ncnc2c1c(-c1ncc(Cl)cn1)cn2[C@@H]1O[C@H](CO)[C@@H](O)[C@H]1O	Trichomonas vaginalis	resorufin	G3, metronidazole-sensitive	24 h + 2 h, 2% O2	0.86 ± 0.136 µM
CC1=C[C@H](O/C=C2/C(=O)O[C@H]3c4ccccc4C[C@@H]23)OC1=O	Phelipanche ramosa	seed germination			5.3e-06 µM
CCOC(=O)c1c(C(C)C)oc2nc(N3CCCC3)ccc12	Trypanosoma cruzi		3T3 host cells, Tulahuen beta-galactosidase	6 days	4.5 µM
CCOC(=O)[C@@H](C)NP(=O)(CO[C@H](CF)Cn1cnc(N)nc1=O)N[C@H](C)C(=O)OCC	human cytomegalovirus	cytopathic effect	HEL, AD-169		> 100 µM
CCc1ccc(-c2cn([C@@H]3O[C@H](CO)[C@@H](O)[C@H]3O)c3ncnc(N)c23)cc1	Trichomonas vaginalis	resorufin	G3, metronidazole-sensitive	24 h + 2 h, 2% O2	0.19 ± 0.037 µM
CCOC(=O)c1c(-c2ccc(F)cc2)oc2ncccc12	Trypanosoma cruzi		3T3 host cells, Tulahuen beta-galactosidase	6 days	13.8 µM
C=C(C)[C@@H]1CC[C@]2(COS(=O)(=O)c3ccc(C)cc3)CC[C@]3(C)[C@H](CC[C@@H]4[C@@]5(C)CCCNC(C)(C)[C@@H]5CC[C@]43C)[C@@H]12	Human cytomegalovirus	cytopathic effect	HFF, AD169		> 1.2 µM

Compound	organism	test	test system	conditions	EC50
CCOC(=O)c1c(C)oc2ncc(N3CC[C@H](F)C3)cc12	Trypanosoma cruzi		3T3 host cells, Tulahuen beta-galactosidase	6 days	18.9 µM
COc1ccc(-n2nc3c(=O)[nH]nc(C)c3c2C)cc1	Zika virus	viral replication, immunofluorescence	Vero, MR766	24 h	39.1 ± 1.8 µM
O=C1OC2(c3ccccc31)c1cc([N+](=O)[O-])c(O)c(Br)c1Oc1c2cc([N+](=O)[O-])c(O)c1Br	Zika virus	viral replication, plaque reduction	A549, PRVABC59		> 15 µM
O=C1C=C[C@@H](O/C=C2/C(=O)O[C@@H]3c4ccccc4C[C@H]23)O1 (racemic)	Phelipanche ramosa	seed germination			0.00092 µM
Cc1nn(Cc2cccc(NC(=O)c3ccccc3)c2)c(=O)c2nn(-c3ccccc3)c(C)c12	Zika virus	viral replication, immunofluorescence	Vero, MR766	24 h	140 ± 13.7 µM
CC1(C)NCCC[C@]2(C)[C@H]3CC=C4[C@@H]5C[C@@](C)(CO)CC[C@]5(C)CC[C@@]4(C)[C@]3(C)CC[C@@H]12	Human cytomegalovirus	cytopathic effect	HFF, AD169		0.11 µM
COc1ccc(-n2nc3c(=O)n(-c4cccc(C(=O)NC(C)C)c4)nc(C)c3c2C)cc1	Zika virus	viral replication, immunofluorescence	Vero, MR766	24 h	105 ± 4.6 µM
Nc1ncnc2c1c(-c1cccc(F)c1)cn2[C@@H]1O[C@H](CO)[C@@H](O)[C@H]1O	Trichomonas vaginalis	resorufin	G3, metronidazole-sensitive	24 h + 2 h, 2% O2	1.52 ± 0.029 µM
CC1(C)CC[C@]2(CO)CC[C@]3(C)C(=CC[C@@H]4[C@@]5(C)CCCNC(C)(C)[C@@H]5CC[C@]43C)[C@@H]2C1	Human cytomegalovirus	cytopathic effect	HFF, AD169		> 1.2 µM
Nc1ncnc2c1c(-c1ccc(Cl)cc1F)cn2[C@@H]1O[C@H](CO)[C@@H](O)[C@H]1O	Trichomonas vaginalis	resorufin	G3, metronidazole-sensitive	24 h + 2 h, 2% O2	0.077 ± 0.013 µM
Cc1ccc2nc(-c3ccc(Cl)cc3)c(CN3CCN(c4cccc(C(F)(F)F)c4)CC3)n2c1	Trypanosoma cruzi		3T3 host cells, Tulahuen beta-galactosidase	6 days	1.7 µM
COc1ccc(-n2nc3c(=O)n(Cc4cccc(NC(=O)c5ccccc5)c4)nc(C)c3c2C)cc1	Zika virus	viral replication, immunofluorescence	Vero, MR766	24 h	300 ± 6.5 µM
CC(C)OC(=O)[C@H](Cc1ccccc1)NP(=O)(COCCn1cnc2c(=O)[nH]c(=O)[nH]c21)N[C@@H](Cc1ccccc1)C(=O)OC(C)C	human cytomegalovirus	cytopathic effect	HEL, AD169		63 ± 19 µM
Nc1ncnc2c1c(-c1ccc(O)cc1)cn2[C@@H]1O[C@H](CO)[C@@H](O)[C@H]1O	Trichomonas vaginalis	resorufin	G3, metronidazole-sensitive	24 h + 2 h, 2% O2	0.15 ± 0.03 µM
O=C(Nc1cc2nc(-c3ccccc3)cn2cn1)Oc1ccccc1	Trypanosoma cruzi		3T3 host cells, Tulahuen beta-galactosidase	6 days	> 20 µM
Cc1cc(-c2cn([C@@H]3O[C@H](CO)[C@@H](O)[C@H]3O)c3ncnc(N)c23)ccc1Cl	Trichomonas vaginalis	resorufin	G3, metronidazole-sensitive	24 h + 2 h, 2% O2	0.14 ± 0.014 µM
COc1ccccc1-c1n[nH]c2nc(N[C@H]3CC[C@H](NS(=O)(=O)CC(C)C)CC3)ncc12	Leishmania donovani	parasite growth	THP-1	intracellular, amastigote	0.014 µM
C=C(C)[C@@H]1CC[C@]2(C(=O)n3ccnc3)CC[C@]3(C)[C@H](CC[C@@H]4[C@@]5(C)CCCNC(C)(C)[C@@H]5CC[C@]43C)[C@@H]12	Human cytomegalovirus	cytopathic effect	HFF, AD169		> 0.24 µM
CCOC(=O)c1c(C)oc2nc(N3CC[C@H](F)C3)ccc12	Trypanosoma cruzi		3T3 host cells, Tulahuen beta-galactosidase	6 days	17.3 µM
Nc1ccn(C[C@@H](CO)OCP(=O)(O)OCCCS(=O)(=O)CCCCCCCCCCCCCC2CCC2)c(=O)n1	JC polyomavirus	qPCR	COS-7, MAD-4	7 days	0.07 ± 0.05 µM
CC1CCN(Cc2cc(/C=C/C(=O)c3ccc(F)cc3)ccc2O)CC1	Plasmodium knowlesi	parasite growth		24 h, blood stage	12 µM

A few entries again:
Compound	organism	test	test system	conditions	EC50
CC1COCCN1c1nc(NCc2cccnc2C(F)(F)F)c2cccnc2n1 (stereo not drawn)	Wolbachia pipientis	infected cells, high-content imaging	C6/36 cells, wAlbB		0.0026 ± 0.0005 µM
COc1ccccc1-c1n[nH]c2nc(N[C@H]3CC[C@H](NS(=O)(=O)CC(C)C)CC3)ncc12	Leishmania donovani	parasite growth	THP-1	intracellular, amastigote	0.014 µM
Cc1ccc2nc(-c3ccc(Cl)cc3)c(CN3CCN(c4cccc(C(F)(F)F)c4)CC3)n2c1	Trypanosoma cruzi		3T3 host cells, Tulahuen beta-galactosidase	6 days	1.7 µM
CCOC(=O)c1c(C(C)C)oc2nc(N3CCCC3)ccc12	Trypanosoma cruzi		3T3 host cells, Tulahuen beta-galactosidase	6 days	4.5 µM
CCOC(=O)c1c(-c2ccc(F)cc2)oc2ncccc12	Trypanosoma cruzi		3T3 host cells, Tulahuen beta-galactosidase	6 days	13.8 µM
Nc1ncnc2c1c(-c1ccc(Cl)cc1F)cn2[C@@H]1O[C@H](CO)[C@@H](O)[C@H]1O	Trichomonas vaginalis	resorufin	G3, metronidazole-sensitive	24 h + 2 h, 2% O2	0.077 ± 0.013 µM
CC1=C[C@H](O/C=C2/C(=O)O[C@H]3c4ccccc4C[C@@H]23)OC1=O	Phelipanche ramosa	seed germination			5.3e-06 µM
